Published values from different studies.
Numbers after ± are the reported error.

| SMILES | method | item | sample | tested at | setting | pKa |
| --- | --- | --- | --- | --- | --- | --- |
| COC(=O)c1ccccc1-c1c2ccc(=O)cc-2oc2c1ccc1cccc(O)c12 | UV absorption spectra | – | water with 10% DMSO | – | hydroxyl group | 7.72 |
| Cc1ccc(-c2ccc(-c3cc4sccc4o3)cn2)nc1 | pH titration | – | – | – | conjugate acid of ligand | 4.3 |
| Cc1ccccc1-c1cc(N2CCN(Cc3ccccc3)CC2)ccc1N(C)C(=O)C(C)(C)c1cc(C(F)(F)F)cc(C(F)(F)F)c1 | potentiometric titration | – | 67% methanol in water | – | – | 6.17 |
| O=c1[nH]c(-c2n[nH]c3ccccc23)no1 | potentiometric titration | – | 0.15 M KCl | – | Yasuda-Shedlovsky extrapolation | 4.73 |
| Cc1sc2c(c1C)C(c1ccc(Cl)cc1)=N[C@@H](CC(=O)NCCCN1CCN(CCCNc3cccc4c3C(=O)N(C3CCC(=O)NC3=O)C4=O)CC1)c1nnc(C)n1-2 (stereo partly drawn) | experimental | – | – | – | – | 4.69 ± 0.14 |
| CC(C)C[C@H](NC(=O)[C@H](CCC1CCCCC1)NC(=O)[C@@H]1CCCN1C(=O)c1ccc(F)cc1)C(=O)NC(C)(C)C(=O)N[C@@H](CC(C)C)C(=O)N[C@@H](CC(C)C)C(=O)NC(C)(C)C(=O)NC(C)(C)C(=O)NCCC(=O)NC1(CN(C)C)CCC1 | potentiometric titration | – | methanol-water 1:4, NaCl 150 mM | – | terminal amine | 7.3 |
| Cc1ccccc1-c1cc(N2CCN(C(=O)[C@@H](N)CCCNC(=N)N)CC2)ccc1N(C)C(=O)C(C)(C)c1cc(C(F)(F)F)cc(C(F)(F)F)c1 | potentiometric titration | – | 67% methanol in water | – | – | > 10 |
| O=c1c(Br)c2oc3c(CN(Cc4ccccn4)Cc4cnccn4)c(O)ccc3nc-2c2ccccc12 | fluorescence | – | – | – | first pKa | 5.35 |
| Br.Br.Br.O=c1c(O)cccn1CCN1CCN(CCn2cccc(O)c2=O)CCN(CCn2cccc(O)c2=O)CC1 | potentiometric titration | – | hydroxypyridinone group | – | pKa2 | 5.7 |
| O=S(=O)([O-])CCCSCCN(CCSCCCS(=O)(=O)[O-])CCSCCCS(=O)(=O)[O-].[Na+].[Na+].[Na+] | potentiometric or spectrophotometric titration | – | – | – | ionic strength 0.1 | 7.11 |
| CC1=C2[O][Ru-]([Cl])[O+]=C2C=CN1CCCN1C=CC2=[O+][Ru-]([Cl])[O]C2=C1C.Cc1ccc(C(C)C)cc1.Cc1ccc(C(C)C)cc1 | NMR pD titration | – | – | – | – | 9.7 ± 0.03 |
| O=C(NC1CCCCN=CC1=O)OCc1ccccc1 (stereo not drawn) | 13C NMR titration | – | – | – | – | ~6.2 |
| Cc1ncsc1-c1ccc([C@H](C)NC(=O)[C@@H]2C[C@@H](O)CN2C(=O)[C@@H](NC(=O)CN2CCN(C(=O)C[C@@H]3N=C(c4ccc(Cl)cc4)c4c(sc(C)c4C)-n4c(C)nnc43)CC2)C(C)(C)C)cc1 | experimental | – | – | – | – | 2.32 ± 0.03 |
| Cc1ccc(CC(=O)N/N=C/c2cc(Br)c(O)c(Br)c2O)cc1 | spectrophotometric titration | first phenolic para-hydroxyl | aqueous NaCl with buffer | 10 µM | – | ~5.5 |
| CONC(=O)c1noc2ccccc12 | potentiometric titration | – | 0.15 M KCl | – | Yasuda-Shedlovsky extrapolation | 6.35 |
| Cc1ccccc1-c1cc(N2CCN(C)CC2)ccc1N(C)C(=O)C(C)(C)c1cc(C(F)(F)F)cc(C(F)(F)F)c1 | potentiometric titration | – | 67% methanol in water | – | – | 6.95 |
| O=c1[nH]c(-c2noc3ccccc23)no1 | potentiometric titration | – | 0.15 M KCl | – | Yasuda-Shedlovsky extrapolation | 3.74 |
| CCCC[C@H](NC(=O)[C@H](CC(C)C)N(C)C(=O)CNC(=O)[C@@H](NC(=O)[C@H](Cc1ccccc1)NC(=O)[C@H](CCCCN)NC(=O)[C@@H](N)CC(=O)O)C(C)C)C(N)=O | potentiometric titration | – | – | – | second pKa | 7.71 ± 0.07 |

Excerpt of the above:
| SMILES | method | item | sample | tested at | setting | pKa |
| --- | --- | --- | --- | --- | --- | --- |
| O=c1[nH]c(-c2n[nH]c3ccccc23)no1 | potentiometric titration | – | 0.15 M KCl | – | Yasuda-Shedlovsky extrapolation | 4.73 |
